Measurements collected from several papers.
Lines come from different studies, so protocols differ. ± marks the error that the study gave.
plsY: Glycerol-3-phosphate acyltransferase (plsY, Streptococcus pneumoniae, UniProt P0A4Q0)
ADRB1: Beta-1 adrenergic receptor (ADRB1, Homo sapiens, UniProt P08588)
UniProt P08588, sequence (whole entry, looked up): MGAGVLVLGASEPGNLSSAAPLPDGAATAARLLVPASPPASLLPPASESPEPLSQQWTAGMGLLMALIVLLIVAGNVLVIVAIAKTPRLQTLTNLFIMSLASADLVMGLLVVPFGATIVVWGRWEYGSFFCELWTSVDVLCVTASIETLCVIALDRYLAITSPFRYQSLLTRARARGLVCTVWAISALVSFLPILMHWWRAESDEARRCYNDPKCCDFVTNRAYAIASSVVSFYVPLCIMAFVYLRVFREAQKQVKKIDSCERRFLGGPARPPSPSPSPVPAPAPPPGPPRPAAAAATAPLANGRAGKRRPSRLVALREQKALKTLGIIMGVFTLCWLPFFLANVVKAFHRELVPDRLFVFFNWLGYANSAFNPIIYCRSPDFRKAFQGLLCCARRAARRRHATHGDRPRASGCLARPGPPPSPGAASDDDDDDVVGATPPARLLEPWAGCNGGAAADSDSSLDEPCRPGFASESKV
Trypanothione synthetase: Trypanothione synthetase (Trypanosoma brucei brucei, UniProt Q586P2)
UniProt O75716, sequence (whole entry, looked up): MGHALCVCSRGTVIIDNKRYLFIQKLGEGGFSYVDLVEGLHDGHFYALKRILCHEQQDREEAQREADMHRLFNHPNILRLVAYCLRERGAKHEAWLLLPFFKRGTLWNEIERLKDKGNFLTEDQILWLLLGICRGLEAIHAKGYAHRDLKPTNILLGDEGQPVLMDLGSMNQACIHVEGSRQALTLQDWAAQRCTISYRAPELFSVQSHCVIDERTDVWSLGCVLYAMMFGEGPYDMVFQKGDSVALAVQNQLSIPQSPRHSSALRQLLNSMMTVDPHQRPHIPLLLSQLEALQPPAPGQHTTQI
UniProt Q7KZI7, sequence (whole entry, looked up): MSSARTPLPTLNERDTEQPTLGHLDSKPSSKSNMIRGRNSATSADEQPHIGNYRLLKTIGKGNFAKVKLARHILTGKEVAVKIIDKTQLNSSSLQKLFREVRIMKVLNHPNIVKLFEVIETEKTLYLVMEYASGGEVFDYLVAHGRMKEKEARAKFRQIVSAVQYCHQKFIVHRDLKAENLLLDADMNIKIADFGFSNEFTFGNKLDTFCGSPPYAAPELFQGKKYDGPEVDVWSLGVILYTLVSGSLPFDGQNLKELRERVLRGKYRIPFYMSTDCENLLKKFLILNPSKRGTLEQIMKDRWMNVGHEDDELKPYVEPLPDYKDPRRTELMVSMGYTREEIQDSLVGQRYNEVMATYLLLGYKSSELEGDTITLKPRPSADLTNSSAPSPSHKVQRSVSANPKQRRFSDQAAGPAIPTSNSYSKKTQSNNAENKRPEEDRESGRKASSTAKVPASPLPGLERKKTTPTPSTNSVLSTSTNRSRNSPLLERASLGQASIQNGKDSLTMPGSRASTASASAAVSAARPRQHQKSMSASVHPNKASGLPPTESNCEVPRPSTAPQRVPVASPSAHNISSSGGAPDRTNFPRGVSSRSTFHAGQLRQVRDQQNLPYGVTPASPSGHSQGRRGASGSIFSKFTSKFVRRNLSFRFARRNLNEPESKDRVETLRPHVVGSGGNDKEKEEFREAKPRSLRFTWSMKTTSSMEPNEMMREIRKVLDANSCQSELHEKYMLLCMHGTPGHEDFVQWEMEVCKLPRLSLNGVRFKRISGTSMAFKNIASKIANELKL
UniProt P41594, sequence (whole entry, looked up): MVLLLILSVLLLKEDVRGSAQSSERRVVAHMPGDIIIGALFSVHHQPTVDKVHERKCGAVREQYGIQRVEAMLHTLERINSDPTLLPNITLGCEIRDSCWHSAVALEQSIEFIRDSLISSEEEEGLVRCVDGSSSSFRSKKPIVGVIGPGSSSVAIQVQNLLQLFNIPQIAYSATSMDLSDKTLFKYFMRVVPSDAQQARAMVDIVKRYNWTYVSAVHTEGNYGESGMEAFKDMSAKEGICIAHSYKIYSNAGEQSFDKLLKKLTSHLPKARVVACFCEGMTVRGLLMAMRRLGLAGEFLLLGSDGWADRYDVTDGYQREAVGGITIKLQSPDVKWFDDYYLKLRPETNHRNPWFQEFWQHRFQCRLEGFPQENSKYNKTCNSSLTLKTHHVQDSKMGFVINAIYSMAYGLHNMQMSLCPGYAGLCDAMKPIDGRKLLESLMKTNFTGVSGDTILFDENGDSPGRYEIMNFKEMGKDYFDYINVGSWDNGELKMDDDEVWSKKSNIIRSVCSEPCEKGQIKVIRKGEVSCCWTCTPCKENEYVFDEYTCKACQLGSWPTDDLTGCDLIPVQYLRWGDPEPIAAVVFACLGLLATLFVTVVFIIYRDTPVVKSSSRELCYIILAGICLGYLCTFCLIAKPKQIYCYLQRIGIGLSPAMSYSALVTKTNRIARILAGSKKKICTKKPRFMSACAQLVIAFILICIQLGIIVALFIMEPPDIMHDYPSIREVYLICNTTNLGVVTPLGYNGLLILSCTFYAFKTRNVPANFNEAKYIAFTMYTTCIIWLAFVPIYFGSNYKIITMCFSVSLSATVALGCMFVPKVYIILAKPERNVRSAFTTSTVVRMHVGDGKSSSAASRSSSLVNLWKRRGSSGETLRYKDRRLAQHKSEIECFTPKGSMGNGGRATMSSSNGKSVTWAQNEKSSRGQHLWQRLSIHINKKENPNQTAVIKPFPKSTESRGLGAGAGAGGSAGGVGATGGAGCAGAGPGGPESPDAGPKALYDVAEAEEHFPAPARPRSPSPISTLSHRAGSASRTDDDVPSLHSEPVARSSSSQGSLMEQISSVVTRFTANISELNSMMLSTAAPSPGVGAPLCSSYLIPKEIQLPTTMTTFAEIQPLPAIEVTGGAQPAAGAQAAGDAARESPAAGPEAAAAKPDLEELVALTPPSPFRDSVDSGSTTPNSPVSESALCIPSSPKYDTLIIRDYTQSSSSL
UniProt P50897, sequence (whole entry, looked up): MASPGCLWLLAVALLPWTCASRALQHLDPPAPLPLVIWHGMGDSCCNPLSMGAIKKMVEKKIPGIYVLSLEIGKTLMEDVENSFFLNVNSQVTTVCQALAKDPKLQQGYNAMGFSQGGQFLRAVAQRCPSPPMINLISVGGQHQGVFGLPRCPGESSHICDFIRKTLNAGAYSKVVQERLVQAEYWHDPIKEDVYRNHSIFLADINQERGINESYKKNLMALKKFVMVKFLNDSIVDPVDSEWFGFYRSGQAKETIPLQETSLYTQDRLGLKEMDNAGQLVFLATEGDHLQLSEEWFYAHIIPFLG
UniProt P05979, sequence (whole entry, looked up): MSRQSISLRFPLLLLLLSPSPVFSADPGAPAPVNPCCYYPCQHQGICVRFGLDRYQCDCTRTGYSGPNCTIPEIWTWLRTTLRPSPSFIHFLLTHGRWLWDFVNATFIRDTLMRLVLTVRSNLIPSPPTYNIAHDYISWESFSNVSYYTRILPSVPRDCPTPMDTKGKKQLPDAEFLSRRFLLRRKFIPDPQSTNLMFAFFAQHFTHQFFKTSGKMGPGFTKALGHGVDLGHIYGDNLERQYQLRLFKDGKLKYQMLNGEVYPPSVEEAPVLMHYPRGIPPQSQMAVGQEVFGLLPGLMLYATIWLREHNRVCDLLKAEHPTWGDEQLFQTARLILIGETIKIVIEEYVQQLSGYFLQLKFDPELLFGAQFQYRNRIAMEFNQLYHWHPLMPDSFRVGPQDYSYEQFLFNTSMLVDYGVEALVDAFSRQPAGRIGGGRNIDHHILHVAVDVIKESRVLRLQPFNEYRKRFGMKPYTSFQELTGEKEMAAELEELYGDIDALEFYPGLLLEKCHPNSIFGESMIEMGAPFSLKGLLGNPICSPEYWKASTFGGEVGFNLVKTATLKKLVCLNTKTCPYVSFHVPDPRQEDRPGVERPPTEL
UniProt P08172, sequence (whole entry, looked up): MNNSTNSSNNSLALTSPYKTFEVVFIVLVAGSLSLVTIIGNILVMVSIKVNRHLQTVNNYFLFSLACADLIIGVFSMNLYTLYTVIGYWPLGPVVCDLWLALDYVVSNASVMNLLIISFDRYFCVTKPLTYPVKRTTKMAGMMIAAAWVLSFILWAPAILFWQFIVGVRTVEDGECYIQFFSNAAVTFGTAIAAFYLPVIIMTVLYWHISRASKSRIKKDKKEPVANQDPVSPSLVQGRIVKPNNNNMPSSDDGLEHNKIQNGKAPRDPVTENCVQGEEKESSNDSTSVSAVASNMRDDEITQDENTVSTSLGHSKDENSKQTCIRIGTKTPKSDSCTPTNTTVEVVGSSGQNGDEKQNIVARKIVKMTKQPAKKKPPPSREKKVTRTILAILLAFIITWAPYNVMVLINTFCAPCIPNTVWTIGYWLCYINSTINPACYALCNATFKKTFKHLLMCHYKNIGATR

| Compound | target | assay | test system | setting | how to read | measurement | value |
| --- | --- | --- | --- | --- | --- | --- | --- |
| CN(CCN1CCC(OC(=O)Nc2ccccc2-c2ccccc2)CC1)C(=O)c1ccc(CN2CCC(C(N)=O)CC2)cc1 | rat opioid receptor non-selective | radioligand binding |  | 1 µM, with: [3H]naloxone 1.0 nM |  | inhibition | 12% |
| CCCCCCCC/C=C\CCCCCCCC(=O)C(F)(F)P(=O)(O)O | plsY | inhibitor |  | 200 µM |  | inhibition | 100% |
| Cc1ncc(C)n2nc(/C=C/c3nc(N4CCCC4)cc(N4CCOCC4)n3)nc12 | AMPA receptor | binding |  | 10 µM |  | inhibition | -8% |
| CN1CCN(c2cc(-c3ccncc3)c(-c3ccc4ccccc4c3)nn2)CC1 | ADRB1 | antagonist, FLIPR |  | 10 µM |  | inhibition | 11.4% |
| CCCCCCCCCCCC(=O)NP(=O)(O)O | plsY | inhibitor |  | 200 µM |  | inhibition | 30% |
| Cc1[nH]c2ccccc2c1CC(=O)NCc1ccc(COCC(F)(F)F)cc1 | Trypanothione synthetase | enzyme activity, BIOMOL Green phosphate release |  | 25 µM |  | inhibition | 27.5 ± 9.5% |
| CCCCCCCCCCCCCCCC(=O)CP(=O)(O)O | plsY | inhibitor |  | 200 µM |  | inhibition | 28% |
| C[C@H]1CN(c2n[nH]c3nc(N[C@H]4CC[C@H](NS(=O)(=O)CCC(F)(F)F)CC4)ncc23)CCO1 | Exportin-1 (XPO1, Homo sapiens, UniProt O14980) | inhibitor, Kinobeads competition profiling |  | 0.8 µM | reference: vehicle | relative abundance | 1.1 |
| CN1CCC(c2cc(-c3ccncc3)c(-c3ccc(F)cc3)[nH]2)CC1 | cGMP-dependent protein kinase (PKG, Plasmodium falciparum, UniProt Q8I719, T618Q) |  |  | 10 µM |  | inhibition | 16 ± 4.5% |
| CNCC(=O)c1ccc(O)c(O)c1.Cl | Palmitoyl-protein thioesterase 1 (Homo sapiens, UniProt P50897) | Spectrum Collection screen |  | concentration not given, with: substrate 20 µM |  | inhibition | 62.7% |
| CCCCCCCCCCCC(=O)C(F)(F)P(=O)(O)O | plsY | inhibitor |  | 200 µM |  | inhibition | 48% |
| CN1CCN(c2nc(N)c3ccccc3n2)CC1 | glycine receptor (rat) | binding, radioligand binding |  | 0.1 µM, mean of two |  | inhibition | 10.5% |
| O=C(O)c1nccnc1NC(=O)c1cccc2ccccc12 | panD (Mycobacteroides abscessus, UniProt B1MGV7, S136A) |  |  | 200 µM |  | inhibition | 74.4% |
| CCCCCC/C=C\CCCCCCCCCC(=O)NP(=O)(O)O | plsY | inhibitor |  | 200 µM |  | inhibition | 93% |
| c1ccc(C(NCCNC(c2ccccc2)c2ccccc2)c2ccccc2)cc1 | Glycogen synthase kinase-3 beta (GSK3B, Homo sapiens, UniProt P49841) | activity |  | 10 µM, Eurofins selectivity panel |  | inhibition | -3% |
| O=C(Nc1cnccc1Cl)N1CCN(Cc2ccc3c(c2)OC(F)(F)O3)CC1 | Monoacylglycerol lipase ABHD6 (Abhd6, Rattus norvegicus, UniProt Q5XI64) | probe labelling, inhibitor, competitive ABPP with azido-FP probe, refers to: ABHD6 | rat brain membrane fraction | 1 µM |  | inhibition | 6.6% |

| Compound | target | assay | test system | setting | how to read | measurement | value |
| --- | --- | --- | --- | --- | --- | --- | --- |
| FC(F)(F)c1cccc(Nc2nc(NCCOc3ccccc3)nc3[nH]cnc23)c1 | Serine/threonine-protein kinase MARK2 (MARK2, Homo sapiens, UniProt Q7KZI7) | Z'-LYTE or Adapta |  | 5 µM |  | inhibition | 6% |
| O=C(Nc1cccnn1)N1CCC(=Cc2cccc(Oc3ccc(C(F)(F)F)cn3)c2)CC1 | GABAB1B receptor, human | binding |  | 50 µM, with: [3H]CGP-54626 |  | inhibition | 13% |
| C[C@@H]1N=C(c2ccccc2F)c2cc(Br)ccc2-n2cnc(C(=O)O)c21 | sigma receptor 2 | binding |  | 10 µM |  | inhibition | -19.5 ± 30.4% |
| Cc1ncc2c(n1)[C@H](C)[C@@H]1C[C@H]2[C@@](C)(O)CN1Cc1ccccc1 | Kappa-type opioid receptor (OPRK1, Cavia porcellus, UniProt P41144) | binding, radioligand binding | guinea pig brain | 1 µM, with: [3H]U-69,593 |  | inhibition | 0% |
| O=C(NC(Cc1c[nH]c2ccccc12)P(=O)(Oc1ccccc1)Oc1ccccc1)OCc1ccccc1 (racemic) | Structural polyprotein, capsid protease (O'nyong-nyong virus, UniProt P22056) | protease activity, irreversible covalent inhibitor |  | 100 µM, 30 °C, CP Δ2 construct, 1% DMSO, with: H-Gly-Glu-Ser-Glu-Val-Trp-ACC, 50 µM |  | inhibition | 53.7 ± 3.7% |
| Cc1nc(-c2ccsc2)sc1C(=O)N1CCCc2ccc(F)cc21 | Trypanothione synthetase | enzyme activity, BIOMOL Green phosphate release |  | 25 µM |  | inhibition | 31.8 ± 2.1% |
| CN(C(=O)n1cnc(-c2ccc[n+]([O-])c2)c1)C1CCCCC1 | Metabotropic glutamate receptor 5 (GRM5, Homo sapiens, UniProt P41594) | radioligand binding |  | 10 µM, with: [3H]quisqualic acid |  | inhibition | -11% |
| O=c1ccc2ccccc2o1 | ADRB1 | agonist radioligand binding |  | 10 µM, SafetyScreen44 |  | inhibition | 1.82% |
| O=C(NCc1ccc(S(=O)(=O)N2CCOCC2)s1)c1cc(Cl)ccc1Cl | Trypanothione synthetase | enzyme activity, BIOMOL Green phosphate release |  | 25 µM |  | inhibition | 40.4 ± 5.8% |
| CC(C)CC(=O)OC[C@H]1O[C@@](C#N)(c2ccc3c(N)ncnn23)[C@H](O)[C@@H]1O | Protein kinase C alpha type (PRKCA, Homo sapiens, UniProt P17252) |  |  | 20 µM |  | inhibition | -8% |
| COCc1c(-c2cc3cc(C)cc(OC)c3s2)c2c(N)ncnn2c1CN1CCNC(=O)C1 | 15-lipoxygenase | enzyme activity |  | 10 µM |  | inhibition | 75% |
| Cc1[nH]c2ccc(F)cc2c1CC(=O)N1CCN(c2ncccn2)CC1 | Trypanothione synthetase | enzyme activity, BIOMOL Green phosphate release |  | 25 µM |  | inhibition | 27 ± 28.4% |
| CSc1ccc(/C=C2/C(C)=C(CC(=O)O)c3cc(F)ccc32)cc1 | Prostaglandin G/H synthase 1 (PTGS1, Ovis aries, UniProt P05979) | enzyme activity, inhibitor, fluorescence |  | 10 µM |  | inhibition | 68 to 70% |
| Cn1cccc1-c1cccnc1 | Muscarinic acetylcholine receptor M2 (CHRM2, Homo sapiens, UniProt P08172) | binding |  | 50 µM |  | inhibition | 24.9% |
| COc1ccc(N2C(=O)N(c3c(C)cccc3Cl)Cc3cnc(Nc4ccc(C5CCN(C)CC5)cc4OC)nc32)nc1 | Serine/threonine-protein kinase 16 (STK16, Homo sapiens, UniProt O75716) | kinase activity |  | 0.5 µM |  | inhibition | -1.84% |
| COc1cc2c(NC3CCN(C)CC3)cc(-c3ccc(C)o3)nc2cc1OCCCN1CCCC1 | DNA (cytosine-5)-methyltransferase 1 (DNMT1, Homo sapiens, UniProt P26358) | enzyme activity |  | 1234.57 nM |  | inhibition | 13% |

Some of these lines once more:
| Compound | target | assay | test system | setting | how to read | measurement | value |
| --- | --- | --- | --- | --- | --- | --- | --- |
| CC(C)CC(=O)OC[C@H]1O[C@@](C#N)(c2ccc3c(N)ncnn23)[C@H](O)[C@@H]1O | Protein kinase C alpha type (PRKCA, Homo sapiens, UniProt P17252) |  |  | 20 µM |  | inhibition | -8% |
| COCc1c(-c2cc3cc(C)cc(OC)c3s2)c2c(N)ncnn2c1CN1CCNC(=O)C1 | 15-lipoxygenase | enzyme activity |  | 10 µM |  | inhibition | 75% |
| Cc1[nH]c2ccc(F)cc2c1CC(=O)N1CCN(c2ncccn2)CC1 | Trypanothione synthetase | enzyme activity, BIOMOL Green phosphate release |  | 25 µM |  | inhibition | 27 ± 28.4% |
